Assay results of several laboratories.
A part holds a random share of what one study measured.

Sample 1 — method: protein-binding microarray; form: double-stranded DNA, one strand shown; medium: in vitro; tested at: 2200 nM top; notes: 60-bp whole probe; with: salmon DNA 0.4 mg/ml; baseline: random background probes; reading: higher = stronger binding; all sequences stand within: GCCTAGCAC … GTCTTGATTCGCTTGACGCTGCTG
Target: Interferon regulatory factor 7, full length, phosphomimetic (IRF7, Homo sapiens, UniProt Q92985, residues 1-503, S471D/S472D/S475D/S476D/S477D/S483D/S484D/S487D)
Target sequence (chain): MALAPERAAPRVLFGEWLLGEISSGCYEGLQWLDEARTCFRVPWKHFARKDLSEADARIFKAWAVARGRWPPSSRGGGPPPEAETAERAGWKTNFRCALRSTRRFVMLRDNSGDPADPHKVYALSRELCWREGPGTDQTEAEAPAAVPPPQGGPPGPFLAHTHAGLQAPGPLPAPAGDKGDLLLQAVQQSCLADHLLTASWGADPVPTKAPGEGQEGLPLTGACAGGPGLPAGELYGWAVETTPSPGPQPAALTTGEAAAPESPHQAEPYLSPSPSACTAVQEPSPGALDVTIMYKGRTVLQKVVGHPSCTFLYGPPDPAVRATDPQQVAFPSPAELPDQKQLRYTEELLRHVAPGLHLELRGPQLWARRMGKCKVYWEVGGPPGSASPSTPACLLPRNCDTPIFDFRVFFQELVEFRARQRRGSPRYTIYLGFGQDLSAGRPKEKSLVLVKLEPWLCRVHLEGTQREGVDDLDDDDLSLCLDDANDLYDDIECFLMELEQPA
Strand	fitted relative affinity [z-score]
TTAGATCTCAGTTTCGATAAGTGCTAG	2.5
GACGATAACGGGTTTCGAGACGTGCTA	1.07
GACGGTATCGGTTTCGGAACGTGCTAG	4.4
TACGGTATCGACACTGGGGACGTGCTA	0.139
CTCTATTGCTTTCTCTTTCAGTGCTAG	4.18
CCAGATTTCCCCACCATCTAGTGCTAG	1.2
GACTATATCAGTTTCGAGACGTGCTAG	3.64
TTAGACTTCAGTTTCGATTAGTGCTAG	5.81

Sample 2 — method: competition protein-binding microarray; form: double-stranded DNA, one strand shown; medium: in vitro; tested at: 2 µM; with: Pho4 competitor, 0.05 µM; reading: higher = stronger binding
Target: Centromere-binding protein 1, full length, His-tagged (CBF1, Saccharomyces cerevisiae, UniProt P17106, residues 1-351)
UniProt P17106, sequence (whole entry, looked up): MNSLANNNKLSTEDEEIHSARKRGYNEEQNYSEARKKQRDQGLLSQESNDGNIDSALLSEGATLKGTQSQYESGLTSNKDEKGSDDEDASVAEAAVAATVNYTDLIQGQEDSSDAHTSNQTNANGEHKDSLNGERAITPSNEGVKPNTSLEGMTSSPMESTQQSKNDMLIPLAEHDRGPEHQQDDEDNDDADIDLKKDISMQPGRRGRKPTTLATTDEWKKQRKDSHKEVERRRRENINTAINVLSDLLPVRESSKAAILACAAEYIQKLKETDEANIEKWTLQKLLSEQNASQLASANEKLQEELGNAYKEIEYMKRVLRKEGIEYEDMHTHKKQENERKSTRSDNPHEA
Notes: whole 60-bp probe, lowest competitor level
Strand	fluorescence intensity [a.u.]
CGAGGACGCCTGCTCTTTCACTTTGTATGGTGATGGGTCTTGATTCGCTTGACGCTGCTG	63.7
AACGAAGAAAACGGCCACGTTAAACACTTTGTTAGGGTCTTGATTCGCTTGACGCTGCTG	96.6
AAAGCGGTAATTTACCACGTGTTTTCACATATCTATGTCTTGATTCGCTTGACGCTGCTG	1810
GTTTAGAATCCCCATCACGTACGAGTTGAAGAATTCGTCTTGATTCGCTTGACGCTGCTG	103
TTAAAACAGAATCGGCACGTGTCCTGATTGCTTCCGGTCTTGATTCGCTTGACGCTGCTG	2500
CAAACAACAATAATCCACGTGCTTTTCGCGTTTTTTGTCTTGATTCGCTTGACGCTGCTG	1550

Sample 3 — method: protein binding microarray; form: double-stranded DNA, one strand shown; medium: in vitro; tested at: not given; baseline: not given; reading: higher = stronger binding
Target: Histone acetyltransferase KAT6A, both winged helices, GST fusion (KAT6A, Homo sapiens, UniProt Q92794, residues 1-181)
Notes: 8-mer, flanks averaged, mean of 2 arrays, mostly near background
Residues (chain): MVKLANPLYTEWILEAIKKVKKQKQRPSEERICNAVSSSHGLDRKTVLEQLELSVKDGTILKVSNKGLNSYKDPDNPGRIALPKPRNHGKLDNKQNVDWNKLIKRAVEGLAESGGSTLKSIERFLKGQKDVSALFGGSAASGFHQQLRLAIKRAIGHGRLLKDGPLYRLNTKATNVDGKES
Strand	E-score
GCCTGCGA	-0.0808
GTACGCCA	0.076
ATCTTGGC	-0.182
ACCTTGTC	0.0704
GGACTTCA	0.00091
AAACCCTG	-0.147
CCGAGCAA	-0.00561
AGTCAATC	-0.13
CGTTTCGA	0.043

Other studies, line by line
Molecule	target	test	system	conditions	scale	endpoint	value
PhoQ, residues 284 288 289 292 302 303 NLSRDF	PhoP, residues 12 14 15 18 19 NMSFL (Escherichia coli, UniProt P23836)	Sort-seq, measured: YFP reporter	E. coli	PhoQ-PhoP variant library, with: 10 µM Mg2+	baseline: high Mg2+ state, higher = stronger signaling	fold induction	13.4

A few entries again (sample 3):
Strand	E-score
GGACTTCA	0.00091
ATCTTGGC	-0.182
